Experimental data pooled from the literature.
Every numbered part comes from another study and shows a few of its results, in no order.

Series 1
Target: Interferon regulatory factor 5, full length, phosphomimetic (IRF5, Homo sapiens, UniProt Q13568-2, residues 1-514, S451D/S453D/S456D/S462D)
Technique: protein-binding microarray
Molecule type: double-stranded DNA, one strand shown
Sample: in vitro
Concentration: 940 nM top
Setting: 60-bp whole probe
With: salmon DNA 0.4 mg/ml
Relative to: random background probes
Direction: higher = stronger binding
Quantity: fitted relative affinity
GCCTAGCACTTAGGTTTCGGGTTGCGGTTAGTGCTAGTCTTGATTCGCTTGACGCTGCTG: 10.9 z-score
GCCTAGCACTTAGGTTTCCTTCACCTTTAGTGCTAGGTCTTGATTCGCTTGACGCTGCTG: 1.87 z-score
GCCTAGCACTTAGGTCTCGGTCTCAGTTAGTGCTAGGTCTTGATTCGCTTGACGCTGCTG: 4.72 z-score

Series 2
Target: Sal-like protein 4, full length isoform A (SALL4, Homo sapiens, UniProt Q9UJQ4, residues 1-1053)
Chain of UniProt Q9UJQ4 (whole entry, looked up): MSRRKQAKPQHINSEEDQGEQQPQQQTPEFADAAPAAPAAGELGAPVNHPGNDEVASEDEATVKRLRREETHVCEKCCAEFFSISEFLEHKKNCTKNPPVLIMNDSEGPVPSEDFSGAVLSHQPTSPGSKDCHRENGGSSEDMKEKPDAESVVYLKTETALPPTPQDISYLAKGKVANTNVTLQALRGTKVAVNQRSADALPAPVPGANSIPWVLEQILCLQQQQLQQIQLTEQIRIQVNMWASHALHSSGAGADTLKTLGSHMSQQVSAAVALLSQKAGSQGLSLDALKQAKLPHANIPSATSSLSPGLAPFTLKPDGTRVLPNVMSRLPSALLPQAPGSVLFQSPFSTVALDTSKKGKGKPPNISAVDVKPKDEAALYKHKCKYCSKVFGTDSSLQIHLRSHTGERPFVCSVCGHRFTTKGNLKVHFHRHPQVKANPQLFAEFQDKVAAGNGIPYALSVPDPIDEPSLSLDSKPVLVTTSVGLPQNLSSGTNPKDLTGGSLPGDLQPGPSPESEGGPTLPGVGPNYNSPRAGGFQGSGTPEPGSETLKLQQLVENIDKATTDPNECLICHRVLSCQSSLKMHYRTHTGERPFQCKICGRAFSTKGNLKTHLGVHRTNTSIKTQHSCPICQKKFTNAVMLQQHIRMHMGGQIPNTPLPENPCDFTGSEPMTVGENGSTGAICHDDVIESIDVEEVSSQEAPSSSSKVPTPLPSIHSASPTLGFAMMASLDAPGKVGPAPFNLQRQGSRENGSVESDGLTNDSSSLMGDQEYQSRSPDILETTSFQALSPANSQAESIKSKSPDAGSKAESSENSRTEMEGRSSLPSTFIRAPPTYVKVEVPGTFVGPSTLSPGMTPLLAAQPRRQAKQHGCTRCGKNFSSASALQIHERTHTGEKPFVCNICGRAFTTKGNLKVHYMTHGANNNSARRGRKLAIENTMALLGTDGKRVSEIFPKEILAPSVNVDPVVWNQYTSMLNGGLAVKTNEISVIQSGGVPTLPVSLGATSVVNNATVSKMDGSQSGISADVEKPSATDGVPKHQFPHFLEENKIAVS
Technique: universal PBM
Molecule type: double-stranded DNA, one strand shown
Sample: in vitro
Concentration: 600 nM
Setting: 8-mer, flanks averaged, mean of replicates
Direction: higher = stronger binding
Quantity: E-score
AAAGAATG: 0.304
GACTACAA: 0.0852
ATGTCCCA: -0.138
CTCTACTC: -0.00861
TCCAGGAA: -0.0116

Series 3
Target: RNA binding protein fox-1 homolog 2, RRM domain, GST-SBP tag (RBFOX2, Homo sapiens, UniProt O43251-10, residues 100-194)
Technique: RNA Bind-n-Seq
Molecule type: RNA
Sample: in vitro
Concentration: 365 nM
Setting: natural RNA segment, single round, ends assumed
Relative to: no-protein control
Direction: higher = stronger binding
Quantity: RBNS enrichment (R)
Construct (chain): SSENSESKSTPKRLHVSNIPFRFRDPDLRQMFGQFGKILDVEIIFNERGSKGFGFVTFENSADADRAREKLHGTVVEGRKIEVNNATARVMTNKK
GGGAGUUCUACAGUCCGACGAUCUAACUAAUGUUAUUUUUUAAAACCUGGACCUUUUCUGGAAGGGCAGCAUAUAAAAACAUCAGUCCCGAGGAGGGGACAACAAUACUACCUCACUACUACAUCUGUGAUGAUGGAAUUCUCGGGUGCCAA: 0.271
GGGAGUUCUACAGUCCGACGAUCCAGACUGAUUUCACCUAGAUUGUCACGGUUUCCUUCAUGUUAACUUUGCGUGACUUUGUUCUUCCUUUACUACUCUGUAUGUAAUAUAUAUACAUAUAUACGUACAUAUGUGGAAUUCUCGGGUGCCAA: 0.209
GGGAGUUCUACAGUCCGACGAUCCCUCUUCUCUCGCAGCCCUGAUGGGGGAAAGGGAGUUGGGUACUGCUUGUGGUUUAGGUUCCCCUCUCCUUUUUUUCUUUUUAAUUCAAUUUGGAAUCAGAAAGCUGGAUUGGAAUUCUCGGGUGCCAA: 0.614

Mixed results
PhoQ, residues 284 288 289 292 302 303 NLSRDF  fold induction (PhoP, residues 12 14 15 18 19 VHSCL (Escherichia coli, UniProt P23836); Sort-seq, refers to: YFP reporter; E. coli; PhoQ-PhoP variant library, with: 10 µM Mg2+; relative to: high Mg2+ state, higher = stronger signaling): 7.06

Repeated from above (series 3):
GGGAGUUCUACAGUCCGACGAUCCAGACUGAUUUCACCUAGAUUGUCACGGUUUCCUUCAUGUUAACUUUGCGUGACUUUGUUCUUCCUUUACUACUCUGUAUGUAAUAUAUAUACAUAUAUACGUACAUAUGUGGAAUUCUCGGGUGCCAA: 0.209
GGGAGUUCUACAGUCCGACGAUCCCUCUUCUCUCGCAGCCCUGAUGGGGGAAAGGGAGUUGGGUACUGCUUGUGGUUUAGGUUCCCCUCUCCUUUUUUUCUUUUUAAUUCAAUUUGGAAUCAGAAAGCUGGAUUGGAAUUCUCGGGUGCCAA: 0.614
